Experimental data of several laboratories.
Lines come from different studies, so protocols differ. Values after ≈ are worked out from the molar mass of the structure shown.

| SMILES | organism | test | system | conditions | quantity | result |
| --- | --- | --- | --- | --- | --- | --- |
| CN(Cc1ccc(C(C)(C)C)cc1)Cc1cccc2ccccc12 | Trichophyton mentagrophytes | microbial growth, disc diffusion | ATCC18748 | 0.064 µg/mL, 72 h | inhibition zone | ≥ 55 mm |
| C[C@@H](Oc1cc(-n2cnc3ccc(OC[C@@H](O)CO)cc32)sc1C(N)=O)c1ccccc1Cl | Trypanosoma brucei | parasite growth |  |  | EC50 | 0.2 µM |
| CC1(C)CC[C@]2(C(=O)OCc3ccccc3)CC[C@]3(C)C(=CC[C@@H]4[C@@]5(C)CC[C@H](O)[C@@](C)(CO)[C@@H]5CC[C@]43C)[C@@H]2C1 | Leishmania mexicana | parasite growth, resazurin |  | 50 µM, amastigote | inhibition | 95.4% |
| Cc1ccc2nc(-c3ccccc3)c(CNc3ccc(F)cc3)n2c1 | Leishmania infantum | parasite growth |  | intracellular, amastigote | EC50 | > 63.1 µM |
| CC1(C)CC[C@]2(NC(=O)N3CCC[C@H]3C(=O)NCCCn3ccnc3)CC[C@]3(C)C(=CC[C@@H]4[C@@]5(C)CC[C@@H]6OC(C)(C)OC[C@@]6(C)[C@@H]5CC[C@]43C)[C@@H]2C1 | Leishmania mexicana | parasite growth, resazurin |  | 50 µM, amastigote | inhibition | 96% |
| O=C(O[C@@H]1O[C@@H]2COC(=O)c3cc(O)c(O)c(O)c3-c3c(cc(O)c(O)c3O)C(=O)O[C@H]([C@H]1O)[C@@H]2O)c1cc(O)c(O)c(O)c1 | Streptococcus mutans | microbial killing, broth dilution |  |  | MBC | 400 µg/mL (≈ 630 µM) |
| COC(=O)c1ccc(O)cc1 | Helicobacter pylori | microbial growth, broth dilution |  | 31.25 µg/mL | inhibition | 100% |
| CC(C)[C@@H]1NC(=O)[C@@H](CCCNC(=N)N)NC(=O)[C@H]([C@@H](C)O)NC(=O)[C@@H](CCCN)NC(=O)[C@H](Cc2ccccc2)NC(=O)[C@@H](Cc2ccc(O)cc2)NC1=O | Balamuthia mandrillaris | parasite growth, ATP luminescence |  |  | IC90 | > 20 µM |
| Cc1ccc(N(c2ccc(NC(=O)CN(C)c3ccccc3N3CCCC3=O)cc2)C(C)C)cc1 | Plasmodium falciparum | parasite growth, SYBR Green | DD2 | blood stage | IC90 | 0.00879 µM |
| Cc1cc(C)nc(SCC(=O)c2cccs2)n1 | Trypanosoma brucei | parasite growth, resazurin |  |  | EC50 | > 64 µM |
| CC1(C)CC[C@]2(C(=O)OCc3ccc([N+](=O)[O-])cc3)CC[C@]3(C)C(=CC[C@@H]4[C@@]5(C)CC[C@H](O)[C@@](C)(CO)[C@@H]5CC[C@]43C)[C@@H]2C1 | Leishmania mexicana | parasite growth, resazurin |  | 50 µM, amastigote | inhibition | 97.3% |
| CC(C)[C@@H]1NC(=O)[C@@H](CCCNC(=N)N)NC(=O)[C@H]([C@@H](C)O)NC(=O)[C@@H](CCCN)NC(=O)[C@H](C)NC(=O)[C@@H](Cc2ccccc2)NC1=O | Balamuthia mandrillaris | parasite growth, ATP luminescence |  |  | IC90 | > 20 µM |
| CCCN1CCC=C(c2ccc(Nc3nc(Nc4ccccc4C(N)=O)c4cc[nH]c4n3)c(C)c2)C1 | Trypanosoma brucei | parasite growth |  |  | EC50 | 0.398 µM |
| CNc1ccnc(SCC(=O)c2ccccc2)c1C#N | Trypanosoma brucei | parasite growth, resazurin | RHODESIENSE |  | EC50 | > 64 µM |
| CN1CCN(CCCNc2nc3ccc(Oc4ccc(NC(=O)Nc5cc(C(F)(F)F)ccc5F)cc4)cc3[nH]2)CC1 | Trypanosoma brucei | parasite growth |  |  | EC50 | 2 µM |
| O=c1oc2c(O)c(O)cc3c(=O)oc4c(O)c(O)cc1c4c23 | Streptococcus mutans | microbial growth, disc diffusion |  | 500 µg/disc | inhibition zone | 17 mm |
| C[C@H](O)[C@H](O)[C@@H](O)[C@@H](O)[C@@H]1OC[C@@]2(C)[C@@H]3CC[C@]4(C)[C@H](CC=C5[C@@H]6CC(C)(C)CC[C@]6(CO)CC[C@]54C)[C@@]3(C)CC[C@@H]2O1 | Leishmania mexicana | parasite growth, resazurin |  | 50 µM, amastigote | inhibition | 100% |
| N#Cc1cccc(Nc2ncc(-c3ccccc3)o2)c1 | Trypanosoma brucei | parasite growth |  |  | EC50 | 1.58 µM |
| CC1(C)CC[C@]2(NC(=O)O)CC[C@]3(C)C(=CC[C@@H]4[C@@]5(C)CC[C@@H]6O[C@H](C[C@H]7O[C@H](CO)[C@@H](O)[C@H](O)[C@@H]7O)OC[C@@]6(C)[C@@H]5CC[C@]43C)[C@@H]2C1 | Leishmania mexicana | parasite growth, resazurin |  | 50 µM, amastigote | inhibition | 97% |
| CCCN1CCCC(c2ccc(Nc3nc(Nc4cc(F)ccc4C(N)=O)c4cc[nH]c4n3)c(OC)c2)C1 (stereo not drawn) | Trypanosoma brucei | parasite growth |  |  | EC50 | 0.1 µM |
| C=C[C@]1(C)C[C@@H](OC(=O)CS[C@@H]2C[C@H]3CC[C@@H](C2)N3C)[C@]2(C)[C@H](C)CC[C@]3(CCC(=O)[C@H]32)[C@@H](C)[C@@H]1O | Streptococcus viridans | microbial growth |  | clinical isolate | MIC90 | 0.0312 µg/mL (≈ 0.0604 µM) |
| CN(Cc1ccc(C2(C(F)(F)F)CC2)cc1)Cc1cccc2ccccc12 | Trichophyton mentagrophytes | microbial growth, disc diffusion | ATCC18748 | 0.008 µg/mL, 72 h | inhibition zone | 28.2 mm |
| C=C[C@@]1(C)C=C2CC[C@@H]3[C@](C)(CCC[C@@]3(C)C(=O)O)[C@H]2CC1 | Helicobacter pylori | microbial growth, broth dilution |  | 0.24 µg/mL | inhibition | 9.35% |
| COc1cccc(C(=O)COc2nc(C)cc(C)c2C#N)c1 | Trypanosoma brucei | parasite growth, resazurin |  |  | EC50 | 45 µM |

| SMILES | organism | test | system | conditions | quantity | result |
| --- | --- | --- | --- | --- | --- | --- |
| O=c1cc(-c2ccc(O)c(O)c2)oc2cc(O)cc(O)c12 | Helicobacter pylori | microbial growth, broth dilution |  | 62.5 µg/mL | inhibition | 100% |
| Cc1[nH]c(C(=O)Nc2ccc(C(=O)NCC(=O)O)cc2N2CCNCC2)c(Cl)c1Cl.Cl | Klebsiella aerogenes | microbial growth, broth dilution | ATCC13408 |  | MIC | > 32 µg/mL |
| O=c1cc(-c2ccc(O)cc2)oc2cc(O)cc(O)c12 | Helicobacter pylori | microbial growth, broth dilution |  | 1.95 µg/mL | inhibition | 100% |
| Cc1cc(C)c(C#N)c(SCC(=O)c2ccc(Cl)cc2)n1 | Trypanosoma brucei | parasite growth, resazurin |  |  | EC50 | 60.1 µM |
| CC(C)[C@@H]1NC(=O)[C@@H](CCCNC(=N)N)NC(=O)[C@H]([C@@H](C)O)NC(=O)[C@@H](CN)NC(=O)[C@H](Cc2ccccc2)NC(=O)[C@@H](Cc2ccccc2)NC1=O | Balamuthia mandrillaris | parasite growth, ATP luminescence |  |  | IC90 | > 20 µM |
| O=C1Nc2ccc(C(=O)c3ccco3)cc2C1=Cc1cc(Cl)c(O)c(Cl)c1 | Trypanosoma brucei | parasite growth |  |  | EC50 | 1.26 µM |
| CC(C)[C@@H]1NC(=O)[C@@H](CO)NC(=O)[C@@H](CCCNC(=N)N)NC(=O)[C@H](Cc2ccccc2)NC1=O | Balamuthia mandrillaris | parasite growth, ATP luminescence |  |  | IC50 | > 16 µg/mL |
| Cc1[nH]c(C(=O)Nc2ccc(C(=O)NCc3n[nH]c(=O)o3)cc2N2CCN(C(=O)OC(C)(C)C)CC2)c(Cl)c1Cl | Klebsiella aerogenes | microbial growth, broth dilution | ATCC13408 |  | MIC | > 32 µg/mL |
| C=C/C=C(\C)CC[C@@H]1C[C@@H](O)CC(=O)O1 | Salmonella enterica | microbial growth, broth dilution | ATCC14028 TYPHIMURIUM |  | MIC | 128 µg/mL (≈ 609 µM) |
| COc1ccc(-c2cc(=O)c3c(O)cc(O[C@@H]4O[C@H](CO)[C@@H](O)[C@H](O)[C@H]4O)cc3o2)cc1O | Helicobacter pylori | microbial growth, broth dilution |  | 0.24 µg/mL | inhibition | 49.3% |
| Cn1nnc(-c2cccnc2SCC(=O)c2ccc(F)cc2)n1 | Leishmania infantum | parasite growth | mouse Macrophage | intracellular, amastigote | EC50 | > 64 µM |
| CC(=O)OC[C@@]1(C)[C@@H]2CC[C@]3(C)[C@H](CC=C4[C@@H]5CC(C)(C)CC[C@]5(NC(=O)N5CCCC5)CC[C@]43C)[C@@]2(C)CC[C@@H]1O | Leishmania mexicana | parasite growth, resazurin |  | 50 µM, amastigote | inhibition | 97.4% |
| COc1ccn2c(Nc3ccc(F)cc3)c(-c3ccccn3)nc2c1 | Leishmania infantum | parasite growth |  | intracellular, amastigote | IC50 | 8.11 µM |
| CCOP(=O)(OCC)OC[C@@]1(C)[C@@H]2CC[C@]3(C)[C@H](CC=C4[C@@H]5CC(C)(C)CC[C@]5(NC(=O)N5CCOCC5)CC[C@]43C)[C@@]2(C)CC[C@@H]1O | Leishmania mexicana | parasite growth, resazurin |  | 50 µM, amastigote | inhibition | 97.9% |
| Cc1ccc2nc(-c3ccccc3)cn2c1 | Leishmania infantum | parasite growth |  | intracellular, amastigote | EC50 | > 63.1 µM |
| COc1cc([C@H]2OC[C@H]3[C@@H]2CO[C@@H]3c2cc(OC)c(O)c(OC)c2)cc(OC)c1O | Helicobacter pylori | microbial growth, broth dilution |  | 15.63 µg/mL | inhibition | 100% |
| COc1cc(C)c(C#N)c(SCC(=O)c2ccccc2)n1 | Leishmania infantum | parasite growth | mouse Macrophage | intracellular, amastigote | EC50 | > 64 µM |
| COc1cccc(-c2nc3ccccn3c2Nc2ccc(F)cc2)n1 | Leishmania infantum | parasite growth |  | intracellular, amastigote | IC50 | > 64 µM |
| CCS(=O)(=O)c1ccc(OC)c(Nc2nccc(N(C)c3ccc4c(C)n[nH]c4c3)n2)c1 | Trypanosoma brucei | parasite growth |  |  | EC50 | 3.16 µM |
| Fc1ccc(Nc2c(-c3ccccn3)nc3cnccn23)cc1 | Leishmania infantum | parasite growth |  | intracellular, amastigote | IC50 | > 64 µM |
| Cc1cc(C)c(C#N)c(NCC(=O)c2ccc(F)cc2)n1 | Trypanosoma brucei | parasite growth, resazurin | RHODESIENSE |  | EC50 | 48.5 µM |
| Cc1ccc2nc(-c3ccccc3)c(CNc3cccc(C(F)(F)F)c3)n2c1 | Leishmania infantum | parasite growth |  | intracellular, amastigote | EC50 | 31.6 µM |
| CC1(C)CC[C@]2(C(=O)O)CC[C@]3(C)C(=CC[C@@H]4[C@@]5(C)CC[C@H](O[C@@H]6O[C@H](CO)[C@@H](O)[C@H](O)[C@H]6O)[C@@](C)(CO)[C@@H]5CC[C@]43C)[C@@H]2C1 | Leishmania mexicana | parasite growth, resazurin |  | 50 µM, amastigote | inhibition | 97.3% |
| N#Cc1cccnc1SCC(=O)c1ccc(F)cc1 | Trypanosoma brucei | parasite growth, resazurin |  |  | EC50 | > 64 µM |
